Assay results of several laboratories.
A part holds a random share of what one study measured.
Sequence of UniProt Q5VT25 (whole entry, looked up): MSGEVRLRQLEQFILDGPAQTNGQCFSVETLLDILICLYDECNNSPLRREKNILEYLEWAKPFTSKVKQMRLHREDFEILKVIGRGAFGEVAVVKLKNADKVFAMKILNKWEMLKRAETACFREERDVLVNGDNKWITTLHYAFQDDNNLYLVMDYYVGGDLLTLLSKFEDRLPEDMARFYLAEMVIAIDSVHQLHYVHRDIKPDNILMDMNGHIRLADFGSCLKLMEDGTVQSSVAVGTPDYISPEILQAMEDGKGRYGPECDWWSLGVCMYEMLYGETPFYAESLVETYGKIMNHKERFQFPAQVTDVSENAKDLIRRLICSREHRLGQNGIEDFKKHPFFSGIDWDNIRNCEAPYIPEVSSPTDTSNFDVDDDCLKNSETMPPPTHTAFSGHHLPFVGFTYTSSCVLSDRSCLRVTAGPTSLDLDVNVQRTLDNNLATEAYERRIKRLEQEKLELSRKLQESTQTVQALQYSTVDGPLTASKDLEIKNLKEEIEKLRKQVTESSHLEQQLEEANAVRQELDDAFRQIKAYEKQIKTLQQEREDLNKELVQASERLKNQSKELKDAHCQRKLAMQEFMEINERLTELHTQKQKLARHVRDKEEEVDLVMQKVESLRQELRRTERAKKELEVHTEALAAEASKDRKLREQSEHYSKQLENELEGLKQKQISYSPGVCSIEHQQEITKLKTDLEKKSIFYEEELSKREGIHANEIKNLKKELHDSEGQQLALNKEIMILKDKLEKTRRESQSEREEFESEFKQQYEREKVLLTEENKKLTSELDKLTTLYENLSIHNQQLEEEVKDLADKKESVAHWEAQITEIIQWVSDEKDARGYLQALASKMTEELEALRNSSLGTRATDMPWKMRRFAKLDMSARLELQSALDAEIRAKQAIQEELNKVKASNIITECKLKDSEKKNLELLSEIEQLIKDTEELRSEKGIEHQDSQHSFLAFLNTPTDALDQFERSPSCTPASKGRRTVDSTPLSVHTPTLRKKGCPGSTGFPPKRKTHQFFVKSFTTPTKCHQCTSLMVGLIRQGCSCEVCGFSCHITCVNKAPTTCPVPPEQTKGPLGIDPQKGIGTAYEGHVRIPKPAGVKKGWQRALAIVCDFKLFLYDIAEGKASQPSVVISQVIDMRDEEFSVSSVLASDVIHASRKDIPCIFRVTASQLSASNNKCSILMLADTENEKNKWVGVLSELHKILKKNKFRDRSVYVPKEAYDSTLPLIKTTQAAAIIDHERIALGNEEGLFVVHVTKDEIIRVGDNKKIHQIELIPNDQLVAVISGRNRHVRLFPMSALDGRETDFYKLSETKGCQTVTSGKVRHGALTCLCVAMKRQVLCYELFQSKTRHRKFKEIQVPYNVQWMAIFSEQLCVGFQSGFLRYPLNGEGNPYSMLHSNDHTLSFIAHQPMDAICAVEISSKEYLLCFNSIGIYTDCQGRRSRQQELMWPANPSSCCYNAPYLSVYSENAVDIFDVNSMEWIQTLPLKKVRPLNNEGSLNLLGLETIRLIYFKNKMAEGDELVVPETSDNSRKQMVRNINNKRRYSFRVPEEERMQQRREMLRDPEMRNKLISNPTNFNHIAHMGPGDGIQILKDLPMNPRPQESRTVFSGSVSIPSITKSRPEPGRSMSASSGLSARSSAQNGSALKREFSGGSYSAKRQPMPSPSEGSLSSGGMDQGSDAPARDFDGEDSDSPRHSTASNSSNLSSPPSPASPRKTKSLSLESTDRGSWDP
Sequence of UniProt P42336 (whole entry, unmodified, looked up): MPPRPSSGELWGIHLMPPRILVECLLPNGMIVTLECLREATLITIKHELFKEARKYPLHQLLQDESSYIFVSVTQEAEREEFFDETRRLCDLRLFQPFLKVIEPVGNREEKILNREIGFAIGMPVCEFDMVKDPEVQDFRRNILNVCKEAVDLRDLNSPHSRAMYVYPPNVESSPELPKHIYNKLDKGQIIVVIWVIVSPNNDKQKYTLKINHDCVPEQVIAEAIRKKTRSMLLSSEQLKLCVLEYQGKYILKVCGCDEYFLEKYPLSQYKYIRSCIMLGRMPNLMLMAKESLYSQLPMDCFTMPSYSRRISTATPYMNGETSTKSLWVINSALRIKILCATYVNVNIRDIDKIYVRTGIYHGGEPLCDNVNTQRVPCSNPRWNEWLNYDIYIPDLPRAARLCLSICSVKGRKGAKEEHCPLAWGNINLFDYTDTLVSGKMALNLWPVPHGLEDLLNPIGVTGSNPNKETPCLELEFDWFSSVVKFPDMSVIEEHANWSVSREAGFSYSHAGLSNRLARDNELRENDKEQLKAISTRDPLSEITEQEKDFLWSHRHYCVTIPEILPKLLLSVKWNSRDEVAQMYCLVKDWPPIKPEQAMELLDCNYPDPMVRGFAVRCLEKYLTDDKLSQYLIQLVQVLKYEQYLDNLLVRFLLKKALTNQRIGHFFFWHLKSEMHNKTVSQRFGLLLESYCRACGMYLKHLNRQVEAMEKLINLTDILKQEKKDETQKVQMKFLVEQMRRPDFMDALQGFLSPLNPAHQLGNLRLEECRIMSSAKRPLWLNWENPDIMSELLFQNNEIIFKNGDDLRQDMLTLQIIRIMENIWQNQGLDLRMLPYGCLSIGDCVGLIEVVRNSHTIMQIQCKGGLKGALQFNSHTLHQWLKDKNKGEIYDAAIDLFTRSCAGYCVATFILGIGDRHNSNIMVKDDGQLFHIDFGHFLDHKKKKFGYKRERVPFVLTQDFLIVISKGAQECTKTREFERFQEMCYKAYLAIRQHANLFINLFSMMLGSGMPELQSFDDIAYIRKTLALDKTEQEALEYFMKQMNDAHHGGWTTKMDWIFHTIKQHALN
Sequence of UniProt Q8TD19 (whole entry, looked up): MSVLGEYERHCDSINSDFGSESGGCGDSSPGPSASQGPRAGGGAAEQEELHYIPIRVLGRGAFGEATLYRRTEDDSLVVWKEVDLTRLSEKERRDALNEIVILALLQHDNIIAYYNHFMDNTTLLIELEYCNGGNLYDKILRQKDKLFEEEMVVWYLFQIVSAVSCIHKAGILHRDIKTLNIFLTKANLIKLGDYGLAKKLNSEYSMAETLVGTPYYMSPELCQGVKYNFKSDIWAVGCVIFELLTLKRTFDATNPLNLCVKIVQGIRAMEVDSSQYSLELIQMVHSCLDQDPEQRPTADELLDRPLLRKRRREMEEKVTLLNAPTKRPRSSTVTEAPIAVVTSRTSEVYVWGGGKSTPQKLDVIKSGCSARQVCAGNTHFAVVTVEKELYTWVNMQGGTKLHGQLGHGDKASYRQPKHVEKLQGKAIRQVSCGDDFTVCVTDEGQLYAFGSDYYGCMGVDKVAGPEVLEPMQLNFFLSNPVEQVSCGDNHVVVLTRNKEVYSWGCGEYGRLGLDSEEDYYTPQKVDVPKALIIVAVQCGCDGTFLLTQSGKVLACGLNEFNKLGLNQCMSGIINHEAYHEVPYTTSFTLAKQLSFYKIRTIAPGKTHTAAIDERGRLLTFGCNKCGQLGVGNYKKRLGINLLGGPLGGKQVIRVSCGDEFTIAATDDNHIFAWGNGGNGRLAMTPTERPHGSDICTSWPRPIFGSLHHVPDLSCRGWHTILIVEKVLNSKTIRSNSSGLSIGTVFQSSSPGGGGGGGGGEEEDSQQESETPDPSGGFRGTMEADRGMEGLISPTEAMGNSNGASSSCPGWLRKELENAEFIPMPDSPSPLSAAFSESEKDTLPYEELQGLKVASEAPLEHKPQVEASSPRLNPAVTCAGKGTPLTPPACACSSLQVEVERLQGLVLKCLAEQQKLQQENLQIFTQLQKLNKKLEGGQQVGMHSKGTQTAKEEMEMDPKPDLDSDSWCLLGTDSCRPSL

Series 1
Target: Ephrin type-B receptor 3 (EPHB3, Homo sapiens, UniProt P54753)
Sequence of UniProt P54753 (whole entry, looked up): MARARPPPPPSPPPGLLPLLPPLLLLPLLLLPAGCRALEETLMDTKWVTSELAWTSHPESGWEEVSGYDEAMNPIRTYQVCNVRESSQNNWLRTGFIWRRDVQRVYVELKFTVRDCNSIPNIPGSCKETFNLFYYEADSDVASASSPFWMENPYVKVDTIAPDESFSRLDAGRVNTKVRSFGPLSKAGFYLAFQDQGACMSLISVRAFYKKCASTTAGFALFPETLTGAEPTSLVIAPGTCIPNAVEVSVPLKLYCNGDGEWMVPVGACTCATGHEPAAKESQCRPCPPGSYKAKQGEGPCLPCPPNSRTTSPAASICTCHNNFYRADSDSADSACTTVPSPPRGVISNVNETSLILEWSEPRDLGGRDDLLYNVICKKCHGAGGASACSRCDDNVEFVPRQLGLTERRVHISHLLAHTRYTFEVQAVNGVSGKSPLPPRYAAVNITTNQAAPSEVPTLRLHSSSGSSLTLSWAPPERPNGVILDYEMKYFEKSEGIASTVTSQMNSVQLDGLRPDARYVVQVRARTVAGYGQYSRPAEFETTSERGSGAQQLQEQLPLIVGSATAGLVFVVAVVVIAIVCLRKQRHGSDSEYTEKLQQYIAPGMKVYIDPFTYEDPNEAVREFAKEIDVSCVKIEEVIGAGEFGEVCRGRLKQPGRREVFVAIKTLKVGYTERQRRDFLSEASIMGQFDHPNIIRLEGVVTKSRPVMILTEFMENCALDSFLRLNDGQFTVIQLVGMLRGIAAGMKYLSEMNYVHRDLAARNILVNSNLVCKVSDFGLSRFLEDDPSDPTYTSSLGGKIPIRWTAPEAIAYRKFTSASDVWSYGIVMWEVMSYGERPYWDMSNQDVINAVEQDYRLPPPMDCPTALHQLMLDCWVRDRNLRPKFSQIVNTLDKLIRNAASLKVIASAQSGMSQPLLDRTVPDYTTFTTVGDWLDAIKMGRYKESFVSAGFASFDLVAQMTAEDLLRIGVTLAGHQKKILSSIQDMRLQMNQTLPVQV
Observed: enzyme activity
Action: inhibitor
Tested at: 0.5 µM
Relative to: control
| Structure (SMILES) | remaining activity |
| --- | --- |
| COc1cc2c(Nc3ccc(Br)cc3F)ncnc2cc1OCC1CCN(C)CC1 | 77.4% |
| O=Nc1c(-c2c(O)[nH]c3ccccc23)[nH]c2ccccc12 | 92.3% |
| NC(=O)c1cccc(-c2cc(Nc3ccc(OC(F)(F)F)cc3)ncn2)c1 | 98% |
| CNc1cc2c(Nc3cccc(Br)c3)ncnc2cn1 | 92.7% |
| O=C(c1ccccc1)c1ccc(N2CCOCC2)cc1O | 92.2% |
| O=C(O)/C=C/c1cc(Br)c(Br)c(Br)c1Br | 89.8% |

Series 2
SMILES: COc1ccc2c(c1)O[C@H](c1ccc(OC)c(OC)c1)C[C@@H]2NC(=O)C1(c2ccc3c(c2)OC(F)(F)O3)CC1
Observed: cell-free assay
Technique: competition with immobilised ligand
Tested at: 1 µM
| target | remaining binding [%] |
| --- | --- |
| Atypical kinase COQ8B, mitochondrial (COQ8B, Homo sapiens, UniProt Q96D53) | 63 |
| Mitogen-activated protein kinase 14 (MAPK14, Homo sapiens, UniProt Q16539) | 90 |
| Serine/threonine-protein kinase Nek5 (NEK5, Homo sapiens, UniProt Q6P3R8) | 100 |
| Serine/threonine-protein kinase SIK2 (SIK2, Homo sapiens, UniProt Q9H0K1) | 100 |
| Serine/threonine-protein kinase WNK4 (WNK4, Homo sapiens, UniProt Q96J92) | 83 |
| Epidermal growth factor receptor (EGFR, Homo sapiens, UniProt P00533, L858R/T790M) | 96 |
| Casein kinase I isoform epsilon (CSNK1E, Homo sapiens, UniProt P49674) | 100 |
| Receptor-type tyrosine-protein kinase FLT3 (FLT3, Homo sapiens, UniProt P36888, ITD) | 100 |
| Phosphatidylinositol 4,5-bisphosphate 3-kinase catalytic subunit alpha isoform (PIK3CA, Homo sapiens, UniProt P42336, E545K) | 91 |
| Serine/threonine-protein kinase Nek9 (NEK9, Homo sapiens, UniProt Q8TD19) | 100 |
| Mitogen-activated protein kinase 4 (MAPK4, Homo sapiens, UniProt P31152) | 100 |
| Cyclin-dependent kinase-like 5 (CDKL5, Homo sapiens, UniProt O76039) | 100 |
| Serine/threonine-protein kinase MRCK alpha (CDC42BPA, Homo sapiens, UniProt Q5VT25) | 100 |
| MAP kinase-interacting serine/threonine-protein kinase 2 (MKNK2, Homo sapiens, UniProt Q9HBH9) | 100 |
| SRSF protein kinase 1 (SRPK1, Homo sapiens, UniProt Q96SB4) | 100 |

Series 3
Host: human
Medium: microsomes or S9
Tested at: 2 µM
Time: 0.5 h
| Compound | remaining compound [%] |
| --- | --- |
| CCOc1ccc(-c2nnc3c4cc(OC)c(OC)cc4n(Cc4ccc(Cl)cc4)cc2-3)cc1 | > 99.9 |
| CC(C)CCn1c(N)nc2c1c(=O)nc(O)n2C | 71.3 |
| CC(C)C(CCN1CCN(C)CC1)c1ccco1 (centres unmarked) | 59.7 |
| CC1(c2ccccn2)CCN(C(=O)C(O)c2ccccc2)C1 (centres unmarked) | 78.7 |
| CC(C)OC(=O)c1ccc(NC(=O)CCCC(=O)O)cc1 | 99.1 |
| Cc1ccccc1N1CCN(C2CCc3occc3C2=O)CC1 (centres unmarked) | 0.192 |
| COc1cccc(-c2nc3cc(Cl)ccc3c3ccnn23)c1 | 0.329 |
| COc1ccc(/C=N/n2cnnc2)cc1Br | 48.1 |
| CC(=O)c1c(NN2CCOCC2)[nH]c2c(Cl)cc([N+](=O)[O-])cc2c1=O | 32.7 |
| Fc1cc(F)cc(-c2cncc(COc3ccccc3)c2)c1 | 0.229 |
| N#Cc1ncc(Br)cc1NC(=O)C(F)(F)F | > 99 |

Series 4
Organism: Sarcocystis neurona
Observed: parasite growth
Tested at: 10 µM
Time: 96 h
Relative to: untreated
| SMILES | log2 fold change |
| --- | --- |
| COC(=O)C1=C(C)NC(C)=C(C(=O)OC(C)C)C1c1cccc2nonc12 (centres unmarked) | 0.48 |
| C/C(=C\C(=O)OCCCCCCCCC(=O)O)C[C@@H]1OC[C@H](C[C@@H]2O[C@H]2[C@@H](C)[C@H](C)O)[C@@H](O)[C@H]1O | -0.11 |
| CC(C)(C(=O)c1cccnc1)c1cccnc1 | 0.39 |
| CCCCNc1cc(C(=O)O)cc(S(N)(=O)=O)c1Oc1ccccc1 | 0.32 |
| CCCC(CCC)C(=O)O | 0.26 |
| CC1=C(/C=C/C(C)=C/C=C/C(C)=C\C(=O)O)C(C)(C)CCC1 | 0.38 |
| Oc1ccc(C2CNCCc3c2cc(O)c(O)c3Cl)cc1 (centres unmarked) | 0.28 |
| NC(=O)N1c2ccccc2CC(=O)c2ccccc21 | -1.3 |
| COc1cccc2c1C(=O)c1c(O)c3c(c(O)c1C2=O)C[C@@](O)(C(=O)CO)C[C@@H]3O[C@H]1C[C@H](N)[C@H](O)[C@H](C)O1 | -1.18 |

For quick reference, copied from above (series 2):
| target | remaining binding [%] |
| --- | --- |
| SRSF protein kinase 1 (SRPK1, Homo sapiens, UniProt Q96SB4) | 100 |
| Mitogen-activated protein kinase 4 (MAPK4, Homo sapiens, UniProt P31152) | 100 |
| Cyclin-dependent kinase-like 5 (CDKL5, Homo sapiens, UniProt O76039) | 100 |
| Casein kinase I isoform epsilon (CSNK1E, Homo sapiens, UniProt P49674) | 100 |
